Published values gathered from unrelated publications.
Protocols differ between the studies behind these lines.
Read-out: metabolic stability

The hepatocyte CLint of `CC1(CCCCCCCCCCCCCCOCCCOP(=O)(O)CO[C@H](CO)Cn2ccc(N)nc2=O)COC1` is reported as 154 µL/min/10⁶ cells (rat, hepatocytes; 1 µM).
With `CN1C(=O)C2(Nc3ccccc3C(=O)N2Cc2ccccc2)c2cc(Br)ccc21` (stereo not drawn) the hepatocyte CLint was greater than 300 µL/min/10⁶ cells (rat, hepatocytes).
`COc1ccc(COc2c(OC)ccc3c2C[C@@H](C(=O)O)N(c2nc4ccc(F)cc4o2)C3)cn1` has a scaled CLint of 2.95 mL/min/kg (rat, liver microsomes; 1 µM, pH 7.4).
The microsomal CLint of `O=C(NCCNCCO)c1cn(Cc2ccc(F)cc2)c2cc(Cl)c(OCc3ccc(C(F)(F)F)cc3)cc2c1=O` is reported as less than 11.6 µL/min/mg (male rat, liver microsomes; 1 µM).
The microsomal CLint of `NC[C@@H](C(=O)Nc1ccc(-c2cn[nH]c2)cc1)c1ccccc1` is reported as 15 µL/min/mg (rat, liver microsomes).
For `COc1cc2c(=O)c(C(=O)NCCNCCO)cn(Cc3ccccc3)c2cc1OCc1ccc(C(C)(C)C)cc1`, the microsomal CLint was less than 11.6 µL/min/mg (male rat, liver microsomes; 1 µM).
`COc1cc(C)c(-c2ccc(O)c3c2C[C@@H](C)N[C@@H]3C)c2cccc(O)c12` (single isomer, unassigned) gave a microsomal CLint of 86.6 µL/min/mg (male rat, liver microsomes; 1 µM).
`Cc1cc(N2CCC(CO)(C3CC3)C2=O)cc(C(=O)NCc2cc(F)cc(-c3cnn(C)c3)c2)n1` (stereo not drawn) has a microsomal CLint of 11 µL/min/mg (rat, liver microsomes; 0.5 µM).
For `COC(=O)c1ccc2c(c1)NC(=O)/C2=C(\Nc1ccc2c(c1)CCN2C(=O)CN1CCOCC1)c1ccccc1`, the microsomal CLint was 70 µL/min/mg (Sprague-Dawley rat, liver microsomes; 10 µM, pH 7.4).
For `Nc1ccn(C[C@@H](CO)OCP(=O)(O)OCCCS(=O)(=O)CCCCCCCCCCC2CCC2)c(=O)n1`, the hepatocyte CLint was 22.2 µL/min/10⁶ cells (rat, hepatocytes; 1 µM).
For `COc1ccc2c(c1OCc1ccccc1)C[C@@H](C(=O)O)N(c1nc3ccc(F)cc3o1)C2`, the scaled CLint was 12.5 mL/min/kg (rat, liver microsomes; 1 µM, pH 7.4).
With `CC1(CCCCCCCCCCCCOCCCOP(=O)(O)CO[C@H](CO)Cn2ccc(N)nc2=O)COC1` the hepatocyte CLint was 60.6 µL/min/10⁶ cells (rat, hepatocytes; 1 µM).
With `COc1cncc(-c2cc(F)cc(CNC(=O)c3cc(N4CC[C@@](C#N)(C5CC5)C4=O)cc(C)n3)c2)c1` the microsomal CLint was 79 µL/min/mg (rat, liver microsomes; 0.5 µM).
With `O=C(NCCNCCO)c1cn(Cc2ccccc2)c2c(Cl)c(OCc3ccc(C(F)(F)F)cc3)c(Cl)cc2c1=O` the microsomal CLint was less than 11.6 µL/min/mg (male rat, liver microsomes; 1 µM).
The hepatocyte CLint of `CC1(CCCCCCCCCCOCCCOP(=O)(O)CO[C@H](CO)Cn2ccc(N)nc2=O)COC1` is reported as 18.8 µL/min/10⁶ cells (rat, hepatocytes; 1 µM).
